# Published values collected from several papers.
# Numbered parts are unrelated; each lists some results of a single study. Values joined by “and” are separate records of one study, mostly repeats; a detail may differ. Positions count from the first letter of the parent shown.

# Set 1 — technique: RNA Bind-n-Seq; form: RNA; medium: in vitro; concentration: 200 nM; setting: whole 134-nt RNA, ends assumed; added: 150 mM KCl; reference: input library; reading: higher = stronger binding
# Target: Ras GTPase-activating protein-binding protein 1, full length (G3BP1, Homo sapiens, UniProt Q13283)
# Chain of UniProt Q13283 (whole entry, looked up): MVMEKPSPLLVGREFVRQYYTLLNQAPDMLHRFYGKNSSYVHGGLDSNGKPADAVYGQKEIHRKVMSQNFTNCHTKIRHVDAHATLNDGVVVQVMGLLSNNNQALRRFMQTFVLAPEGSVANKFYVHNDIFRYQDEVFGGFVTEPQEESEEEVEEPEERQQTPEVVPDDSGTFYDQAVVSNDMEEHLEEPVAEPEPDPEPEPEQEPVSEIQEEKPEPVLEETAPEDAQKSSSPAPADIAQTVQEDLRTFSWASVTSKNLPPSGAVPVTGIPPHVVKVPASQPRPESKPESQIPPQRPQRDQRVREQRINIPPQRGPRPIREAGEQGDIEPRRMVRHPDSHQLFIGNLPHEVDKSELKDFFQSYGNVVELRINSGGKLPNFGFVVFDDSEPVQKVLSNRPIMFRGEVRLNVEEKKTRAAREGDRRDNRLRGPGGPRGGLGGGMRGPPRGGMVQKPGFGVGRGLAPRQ
# Shared flanks, not repeated: GGGAGUUCUACAGUCCGACGAUC … UGGAAUUCUCGGGUGUCAAGG
Sequence,log2 enrichment
CAAGUCCUGUGCUACACAUCGUAUGUACCGAAUCGGGGAGGGGAGGGGUUUGGGGAAAGUAUUAUGUUACGCCGUUCGGAUCUGCACUUC,1.12
ACCAUGCAGGUGGGCAUCUUUGGGAAGUGGGGCAAGGGGCGGAUAGGGAGGGGGGUAACACUUUGGGAACAGGUGGUCCCAGGUCGUUUC,1.11
UUCAUUCUUACUUUGAAUCUAGGAUUUUAUGGAAGACCUUGGGUUAUGGAACAGAGAAAAGAACUCUUUAGAAGGUAAAUCUUCAUUAUA,-2.27
AGUUACGGUAGCAGUUCUCAGAGCAGCAGCUAUGGGCAGCCCCAGAGUGGGAGCUACAGCCAGCAGCCUAGCUAUGGUGGACAGCAGCAA,-1.6
UCAAGUCCUGUGCUACACAUCGUAUGUACCGAAUCGGGCCCGGGCCCGGGCCCGGAAAGUAUUAUGUUACGCCGUUCGGAUCUGCACUUC,-1.21
UGGGAGGUGGAUUUUGUUUAUUUUUUUAGCUCAUUUCCAGGGGUGGGAAUUUUUUCUUAAUAUGUGUCAUGAAUAAAGUUGUUUUUGAAA,0.18
UAACUUUAGAGGAGGAUCUGAUGGAUAUGGCAGUGGACGUGGAUUUGGGGAUGGGUAUAAUGGGUAUGGAGGAGGACCUGGAGGUGGCAA,0.73

# Set 2 — target: CCND2, cyclin fold, Cln2 fusion (human); technique: yeast growth competition, sequencing; medium: yeast; setting: strong parent motif; reference: not given; reading: higher = stronger binding
# Parent: INSM1 docking peptide (human); PKAIRKLHFEDEV; partner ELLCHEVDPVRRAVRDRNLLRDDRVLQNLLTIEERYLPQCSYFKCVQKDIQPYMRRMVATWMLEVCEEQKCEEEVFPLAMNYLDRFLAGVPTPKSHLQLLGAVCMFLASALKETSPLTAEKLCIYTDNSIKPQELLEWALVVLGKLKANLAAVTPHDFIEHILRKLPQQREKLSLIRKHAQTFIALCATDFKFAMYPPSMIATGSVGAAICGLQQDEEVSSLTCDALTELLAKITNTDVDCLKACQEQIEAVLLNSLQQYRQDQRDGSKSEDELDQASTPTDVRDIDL
Variant,normalised enrichment score
PKEIRKLHFEDEV [A3E],0.555
PKAIRKLHFEEEV [D11E],2.37
PKAFRKLHFEDEV [I4F],0.309
PKAIRKIHFEDEV [L7I],1.76
PKAWRKLHFEDEV [I4W],0.194

# Set 3 — technique: DHFR PCA, deep sequencing; medium: yeast; added: (+)-ABA 2500 µM; reference: wild-type fitted maximum; reading: higher = stronger binding
# Target: ABI1, truncated, D143A, DHFR fusion (Arabidopsis thaliana)
# Setting: methotrexate growth selection, single substitutions
# Parent: PYL1, truncated, DHFR fusion (Arabidopsis thaliana); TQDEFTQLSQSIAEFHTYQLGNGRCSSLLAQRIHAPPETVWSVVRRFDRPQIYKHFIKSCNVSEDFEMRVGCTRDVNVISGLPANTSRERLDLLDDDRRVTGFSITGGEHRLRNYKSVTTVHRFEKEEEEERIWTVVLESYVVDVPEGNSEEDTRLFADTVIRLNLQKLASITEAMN; partner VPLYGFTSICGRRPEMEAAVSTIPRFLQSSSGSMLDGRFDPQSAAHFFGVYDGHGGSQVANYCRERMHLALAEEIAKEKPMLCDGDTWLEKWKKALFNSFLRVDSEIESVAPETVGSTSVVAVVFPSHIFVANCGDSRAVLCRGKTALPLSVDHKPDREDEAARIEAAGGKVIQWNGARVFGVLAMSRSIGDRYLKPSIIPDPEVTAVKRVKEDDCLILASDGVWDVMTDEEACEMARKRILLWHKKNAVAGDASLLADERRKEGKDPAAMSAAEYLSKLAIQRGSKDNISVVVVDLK
Variant,relative binding score
T154R,0.604%
Y115D,5.25%
E129H,107%

# Single results of other studies
Substance,target,assay,system,conditions,scale,measurement,result
"PhoQ, residues 284 288 289 292 302 303 ASSHFY","PhoP, residues 12 14 15 18 19 LWHCS (Escherichia coli, UniProt P23836)","Sort-seq, item: YFP reporter",E. coli,"PhoQ-PhoP variant library, added: 10 µM Mg2+","reference: high Mg2+ state, higher = stronger signaling",fold induction,12.1 and 9.44

# For quick reference, copied from above (set 2):
Variant,normalised enrichment score
PKAIRKIHFEDEV [L7I],1.76
PKAWRKLHFEDEV [I4W],0.194
